Assay results of several laboratories.
Each numbered part is a random draw from the data of one study; scales do not carry over between parts. Substitutions count along the parent as printed.

Set 1 — technique: protein-binding microarray; molecule type: double-stranded DNA, one strand shown; matrix: in vitro; concentration: 0.8 µM; notes: whole 60-bp probe, no competitor; reading: higher = stronger binding; shared flanks, not repeated: … GTCTTGATTCGCTTGACGCTGCTG
Target: Centromere-binding protein 1, full length, N-terminal tag (CBF1, Saccharomyces cerevisiae, UniProt P17106, residues 1-351)
Chain of UniProt P17106 (whole entry, looked up): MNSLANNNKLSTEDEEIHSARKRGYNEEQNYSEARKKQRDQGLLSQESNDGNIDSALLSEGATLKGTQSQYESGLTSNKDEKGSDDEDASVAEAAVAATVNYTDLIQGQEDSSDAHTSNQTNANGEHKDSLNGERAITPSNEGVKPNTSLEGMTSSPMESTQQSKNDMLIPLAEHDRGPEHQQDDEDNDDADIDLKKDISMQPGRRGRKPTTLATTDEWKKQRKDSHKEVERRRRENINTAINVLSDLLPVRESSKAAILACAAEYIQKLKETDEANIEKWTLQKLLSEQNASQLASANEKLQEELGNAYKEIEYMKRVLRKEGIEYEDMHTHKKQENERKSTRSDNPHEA
Sequence | fluorescence intensity [a.u.]
CCTAACTACTATAGTTTTGTGATATAGCTTCGTACA | 488
CCTAACTACTATATGAACGTGGTATAGCTTCGTACA | 589
CTACCATTTGCCTGTCTGATGATATTCTTGATTTTC | 521
GAATAGTAACGCCGTATCGTGATTAACGTATTATAG | 666
GAAAGACGATAGTGGATTTTTATTCCAACAGAGTAG | 486
CTAGCGAAGTAGAGTGACACGTCCATTACCCAGTTC | 542
GAAGACATAGTTCACGCGGTAATTTTTTTTCGCTAG | 548
GAACCCTTCGTGAAACACGTGGGATACCGGTTATAG | 2360
CCTAACTACTATATTCTCGTGCGATAGCTTCGTACA | 582
CTAAGTAAAAATCTACACATGACACTCAACACATTC | 955
GAACTGCTGCATTGTCACGGGCTGGACATTTGGTAG | 891
CTAAGTTTTCATTGTCACGTATCTGCAATGGCATTC | 742
CTAGCATAAAGCTCCCCCGTCATGAACATTAAGTTC | 468
GAACAAGAAAAGTTGAACGTGTCGTACGTATAATAG | 556
GAACGGTGGGCATTGTACCTGATCATGCTAGACTAG | 527
GAATTGATCGCGTGTCACGTGACCAAATCGTACTAG | 49500
CCTAACTACTATAAATACATCAGATAGCTTCGTACA | 509
CTAAATCGCATACTCCACGTGAGAACAAGAAAATTC | 1920
GAATTTAGTTAATCAGGTGTGAGGTGGAATGAGTAG | 1340

Set 2 — target: CCNE2, cyclin fold, Cln2 fusion (human); technique: yeast growth competition, sequencing; matrix: yeast; notes: weak parent motif; reference: not given; reading: higher = stronger binding
Parent: SLBP docking peptide (human); ARYKRKLLINDFG; partner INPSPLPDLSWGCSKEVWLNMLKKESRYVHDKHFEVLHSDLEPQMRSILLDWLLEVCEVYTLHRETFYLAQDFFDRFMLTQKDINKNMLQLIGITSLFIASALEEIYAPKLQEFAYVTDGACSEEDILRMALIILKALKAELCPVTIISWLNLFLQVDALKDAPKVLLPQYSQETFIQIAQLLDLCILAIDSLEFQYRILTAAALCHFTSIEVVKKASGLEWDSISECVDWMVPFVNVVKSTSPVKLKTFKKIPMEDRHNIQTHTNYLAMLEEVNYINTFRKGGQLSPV
Substitution | normalised enrichment score
ARYKRKLTINDFG [L8T] | 0.53
ARYKRKLLIHDFG [N10H] | 0.611
ARYKRKLYINDFG [L8Y] | 0.482
ARRKRKLLINDFG [Y3R] | 0.68
ARYKRRLLINDFG [K6R] | 0.678
ARYKRKLKINDFG [L8K] | -0.17
ARYKRKLQINDFG [L8Q] | 0.831
ARYKGKLLINDFG [R5G] | 0.202
ARYKRKLSINDFG [L8S] | 0.288
ARYKRKLEINDFG [L8E] | 1.21
ARYKRKLLIEDFG [N10E] | 1.5
ARYKRKLLFNDFG [I9F] | 1.67
PRYKRKLLINDFG [A1P] | 0.783
ARYKRKLLINAFG [D11A] | 0.928
WRYKRKLLINDFG [A1W] | 1.16
ARYCRKLLINDFG [K4C] | 0.0186
ARYKRKLLINPFG [D11P] | 1.33
ARYKRKLLENDFG [I9E] | 0.883
ARYKRKLAINDFG [L8A] | 0.906

Set 3 — technique: protein-binding microarray; molecule type: double-stranded DNA, one strand shown; matrix: in vitro; concentration: not given; reading: higher = stronger binding
Target: Max-binding protein MNT, bHLH-zipper, MAX partner unstated (MNT, Homo sapiens, UniProt Q99583, residues 220-300)
Notes: k-mer, scored over probes, only values ≥0.25
Residues (chain): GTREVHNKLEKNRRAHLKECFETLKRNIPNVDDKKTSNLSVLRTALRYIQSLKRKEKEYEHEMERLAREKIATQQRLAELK
Sequence | E-score
CATGCAAG | 0.293
CATGTTTC | 0.318
CGTGTGGA | 0.296
AGGAGGGG | 0.275
AAGCGGGG | 0.256
ACGCCCCA | 0.291
GGCGCCAC | 0.282
CCCACCGC | 0.279
ACACGTGT | 0.498
CCGCATGC | 0.431
GCGTGAGC | 0.289
CGTGTTGC | 0.339
ACGCGGTG | 0.34
ATCGCACG | 0.308
GCCCACGC | 0.394
AGGGTGGG | 0.331
ATGCACGA | 0.332
ACGCGCTA | 0.257
CATGGCCG | 0.304

Set 4 — technique: protein-binding microarray; molecule type: double-stranded DNA, one strand shown; matrix: in vitro; concentration: 250 nM; notes: 60-bp whole probe; added: salmon DNA 0.4 mg/ml; reference: random background probes; reading: higher = stronger binding; shared flanks, not repeated: GCCTAGCAC … GTCTTGATTCGCTTGACGCTGCTG
Target: Interferon regulatory factor 5, full length, phosphomimetic (IRF5, Homo sapiens, UniProt Q13568-2, residues 1-514, K96S/S451D/S453D/S456D/S462D)
Sequence | log fluorescence
GACGATATGGGGACTGGAGACGTGCTA | -0.108 z-score
TTAGGTTTCTACTATCGGTTAGTGCTA | 8.2 z-score
TTAGATGTCAGTTTCGATTAGTGCTAG | 9.48 z-score
TTAGGTATCCTACTGATTTAGTGCTAG | -0.0266 z-score
GGTGGTCTGGGACCCTCCCCGTGCTAG | -0.461 z-score
CTAGAACTGGGGTATCGATTAGTGCTA | 1.92 z-score
TCATTTCCCACTTTCACACTGTGCTAG | 3.21 z-score
TTCGGTTTCGGACTGGGTTAGTGCTAG | 6.56 z-score
TCATGCCTCATCTTGCAGACTGTGCTA | -0.172 z-score
TTAGTACTGAGTATCGATTAGTGCTAG | 5.98 z-score
TTCCAAATGCCCTCTCCATACGTGCTA | 0.0516 z-score
TGGGTTTTCAGCTGTTTTTCTGTGCTA | 1.28 z-score
TCAAACATCCCAATGGCACTGTGCTAG | -0.214 z-score
TTAGGGCTCGGTCTCGGTTAGTGCTAG | -0.282 z-score
ATTTTTCTAATTTACTTTGGGTGCTAG | 1.04 z-score
GACGGACTGTTACTGCTGACGTGCTAG | -0.418 z-score
GACGGACTGGTTATCGGGACGTGCTAG | 0.201 z-score
GACGGTTTCGGTATCGAGACGTGCTAG | 9.95 z-score
GACGTTATCAGACTGGAGACGTGCTAG | 0.0763 z-score
TTAGGACTGGGTCTCGGTTGGTGCTAG | -0.303 z-score
GACGGTTTCGGTTCCGGTACGTGCTAG | 9.92 z-score
TTAAATCTCAGACTGGATTAGTGCTAG | -0.0473 z-score
GACGATCTCAGTTTCGAGACGTGCTAG | 4.94 z-score
GACGGGCTCCTTATCCTGACGTGCTAG | -0.525 z-score
TTGGATTTCGGGACTGGATTAGTGCTA | 2.05 z-score

Set 5 — technique: DHFR PCA, deep sequencing; matrix: yeast; added: (+)-ABA 200 µM; reference: wild-type fitted maximum; reading: higher = stronger binding
Target: ABI1, truncated, D143A, DHFR fusion (Arabidopsis thaliana)
Notes: methotrexate growth selection, single substitutions
Parent: PYL1, truncated, DHFR fusion (Arabidopsis thaliana); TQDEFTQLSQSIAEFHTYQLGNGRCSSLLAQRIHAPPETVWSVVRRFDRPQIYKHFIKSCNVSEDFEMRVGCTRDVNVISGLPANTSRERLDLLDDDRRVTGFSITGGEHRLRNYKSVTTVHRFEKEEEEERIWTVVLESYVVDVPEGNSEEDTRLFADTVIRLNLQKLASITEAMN; partner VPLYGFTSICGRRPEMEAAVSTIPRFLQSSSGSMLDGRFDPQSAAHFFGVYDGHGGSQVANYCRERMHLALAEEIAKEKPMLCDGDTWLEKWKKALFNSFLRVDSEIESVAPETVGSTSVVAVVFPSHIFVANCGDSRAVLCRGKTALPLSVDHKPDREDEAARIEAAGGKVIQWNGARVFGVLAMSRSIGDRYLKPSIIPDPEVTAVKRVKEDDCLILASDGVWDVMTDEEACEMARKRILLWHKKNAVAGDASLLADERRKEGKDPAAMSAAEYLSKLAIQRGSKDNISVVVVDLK
Substitution | relative binding score [%]
F66H | 93.1
R123V | 86
R32G | 69.6
Y141I | 9.61
L20G | 104
F15Q | 70.5
L8H | 86.5
Q51G | 86.2
N149P | -0.583
P83K | 5.5
G21Y | 96.8
V43R | 48.9
Q10N | 97
R90K | 103
V161E | -1.68
E147H | 96
P50Y | 5.47
R163W | 39.6
G102R | 60.8
G107E | 85.2
T101R | -6.24

Mixed results
Molecule | target | assay | system | conditions | scale | quantity | result
PhoQ, residues 284 288 289 292 302 303 GASLAW | PhoP, residues 12 14 15 18 19 STWGI (Escherichia coli, UniProt P23836) | Sort-seq, refers to: YFP reporter | E. coli | PhoQ-PhoP variant library, added: 10 µM Mg2+ | reference: high Mg2+ state, higher = stronger signaling | fold induction | 0.562

For quick reference, copied from above (set 3):
Sequence | E-score
CATGCAAG | 0.293
ATCGCACG | 0.308
AGGAGGGG | 0.275
GGCGCCAC | 0.282
ATGCACGA | 0.332
CGTGTTGC | 0.339
CATGGCCG | 0.304
CGTGTGGA | 0.296
CATGTTTC | 0.318
ACACGTGT | 0.498
